Measurements collected from several papers.
Every numbered part comes from another study and shows a few of its results, in no order. Changes are numbered by the printed parent chain.
UniProt O95747, sequence (whole entry, looked up): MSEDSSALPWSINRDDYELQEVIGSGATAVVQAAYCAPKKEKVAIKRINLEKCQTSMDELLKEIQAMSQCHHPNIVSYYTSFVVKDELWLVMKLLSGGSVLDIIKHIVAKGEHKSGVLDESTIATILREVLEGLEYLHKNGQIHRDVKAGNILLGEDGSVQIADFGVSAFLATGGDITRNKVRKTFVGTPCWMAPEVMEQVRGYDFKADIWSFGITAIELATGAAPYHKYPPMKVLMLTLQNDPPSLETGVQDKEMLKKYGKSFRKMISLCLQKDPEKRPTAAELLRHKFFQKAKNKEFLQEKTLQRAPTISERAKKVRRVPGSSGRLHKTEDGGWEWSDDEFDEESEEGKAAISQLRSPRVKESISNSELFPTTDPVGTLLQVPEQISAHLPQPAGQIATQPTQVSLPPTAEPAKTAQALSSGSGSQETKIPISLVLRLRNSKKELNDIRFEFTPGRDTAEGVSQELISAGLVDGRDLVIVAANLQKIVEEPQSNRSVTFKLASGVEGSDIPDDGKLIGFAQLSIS
UniProt P28335, sequence (whole entry, looked up): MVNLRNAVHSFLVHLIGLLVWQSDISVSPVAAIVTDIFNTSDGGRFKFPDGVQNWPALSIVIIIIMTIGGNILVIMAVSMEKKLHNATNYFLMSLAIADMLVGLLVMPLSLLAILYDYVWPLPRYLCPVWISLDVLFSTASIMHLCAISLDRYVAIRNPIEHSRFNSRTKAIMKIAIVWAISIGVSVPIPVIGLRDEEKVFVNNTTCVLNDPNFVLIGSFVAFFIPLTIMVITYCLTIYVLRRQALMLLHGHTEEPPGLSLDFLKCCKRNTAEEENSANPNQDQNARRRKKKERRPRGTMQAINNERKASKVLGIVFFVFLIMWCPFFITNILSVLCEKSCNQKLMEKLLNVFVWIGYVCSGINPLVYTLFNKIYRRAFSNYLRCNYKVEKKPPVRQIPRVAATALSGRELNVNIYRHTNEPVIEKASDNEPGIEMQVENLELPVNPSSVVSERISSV
UniProt Q9Y4K4, sequence (whole entry, looked up): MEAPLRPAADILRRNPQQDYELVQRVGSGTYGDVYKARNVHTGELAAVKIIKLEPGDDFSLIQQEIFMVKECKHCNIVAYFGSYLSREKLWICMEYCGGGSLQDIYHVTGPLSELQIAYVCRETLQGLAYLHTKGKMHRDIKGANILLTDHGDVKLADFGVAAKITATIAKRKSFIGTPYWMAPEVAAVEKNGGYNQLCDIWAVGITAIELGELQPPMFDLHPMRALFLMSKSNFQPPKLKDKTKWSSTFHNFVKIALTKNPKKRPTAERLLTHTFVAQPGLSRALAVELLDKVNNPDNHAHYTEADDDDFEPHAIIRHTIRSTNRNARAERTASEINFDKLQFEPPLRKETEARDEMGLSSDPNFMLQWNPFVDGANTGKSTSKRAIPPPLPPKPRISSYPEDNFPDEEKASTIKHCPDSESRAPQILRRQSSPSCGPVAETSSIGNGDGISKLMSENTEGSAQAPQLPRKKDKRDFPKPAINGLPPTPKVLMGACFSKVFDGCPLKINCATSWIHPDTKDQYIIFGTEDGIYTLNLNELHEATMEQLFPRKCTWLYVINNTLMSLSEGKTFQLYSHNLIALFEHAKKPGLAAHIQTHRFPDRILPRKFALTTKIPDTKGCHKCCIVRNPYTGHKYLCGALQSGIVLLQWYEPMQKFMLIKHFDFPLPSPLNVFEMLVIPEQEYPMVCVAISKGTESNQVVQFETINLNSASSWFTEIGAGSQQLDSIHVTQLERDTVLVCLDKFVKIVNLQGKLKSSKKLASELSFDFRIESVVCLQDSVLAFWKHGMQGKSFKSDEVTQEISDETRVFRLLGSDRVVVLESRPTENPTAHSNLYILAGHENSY
UniProt P28223, sequence (whole entry, looked up): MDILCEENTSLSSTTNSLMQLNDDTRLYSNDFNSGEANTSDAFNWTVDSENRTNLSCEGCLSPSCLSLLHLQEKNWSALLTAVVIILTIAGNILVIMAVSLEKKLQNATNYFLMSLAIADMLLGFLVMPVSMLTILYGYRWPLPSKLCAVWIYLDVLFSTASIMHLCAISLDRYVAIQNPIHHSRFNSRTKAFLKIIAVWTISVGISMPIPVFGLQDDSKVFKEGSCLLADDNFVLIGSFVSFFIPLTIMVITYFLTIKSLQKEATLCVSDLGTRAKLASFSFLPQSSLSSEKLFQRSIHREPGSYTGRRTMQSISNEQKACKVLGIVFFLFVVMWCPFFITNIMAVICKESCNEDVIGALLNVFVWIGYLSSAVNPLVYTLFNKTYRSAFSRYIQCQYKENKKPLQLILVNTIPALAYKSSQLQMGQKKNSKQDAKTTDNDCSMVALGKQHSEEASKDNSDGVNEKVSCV
UniProt P61075, sequence (whole entry, looked up): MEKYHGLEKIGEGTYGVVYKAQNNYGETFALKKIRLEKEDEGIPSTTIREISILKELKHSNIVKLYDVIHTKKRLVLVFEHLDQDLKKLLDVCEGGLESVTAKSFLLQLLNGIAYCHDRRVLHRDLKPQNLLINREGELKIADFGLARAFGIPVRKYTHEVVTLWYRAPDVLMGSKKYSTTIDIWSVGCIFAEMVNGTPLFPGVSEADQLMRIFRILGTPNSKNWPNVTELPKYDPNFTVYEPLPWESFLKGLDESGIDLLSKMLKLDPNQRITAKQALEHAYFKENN
UniProt P25098, sequence (whole entry, looked up): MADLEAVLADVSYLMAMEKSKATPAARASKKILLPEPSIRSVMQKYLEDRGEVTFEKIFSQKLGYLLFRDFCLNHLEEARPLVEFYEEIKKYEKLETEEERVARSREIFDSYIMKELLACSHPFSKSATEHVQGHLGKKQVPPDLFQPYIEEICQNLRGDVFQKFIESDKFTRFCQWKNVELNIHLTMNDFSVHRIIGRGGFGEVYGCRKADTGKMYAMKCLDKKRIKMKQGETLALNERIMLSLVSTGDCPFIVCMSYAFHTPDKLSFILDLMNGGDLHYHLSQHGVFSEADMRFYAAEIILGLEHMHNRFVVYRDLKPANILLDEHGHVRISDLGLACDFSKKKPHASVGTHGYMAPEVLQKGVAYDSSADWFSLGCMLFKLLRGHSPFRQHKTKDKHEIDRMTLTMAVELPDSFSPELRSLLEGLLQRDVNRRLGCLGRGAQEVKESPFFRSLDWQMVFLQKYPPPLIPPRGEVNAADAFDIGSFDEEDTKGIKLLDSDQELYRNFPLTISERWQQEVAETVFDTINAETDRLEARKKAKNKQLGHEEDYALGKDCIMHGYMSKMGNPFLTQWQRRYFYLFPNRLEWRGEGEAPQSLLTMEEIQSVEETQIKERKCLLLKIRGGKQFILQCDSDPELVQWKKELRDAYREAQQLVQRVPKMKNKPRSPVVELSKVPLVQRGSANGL

Series 1 — read-out: cell-free assay; tested at: 0.5 µM
Structure (SMILES): O=c1[nH]c2ccccc2n1C1CCN(Cc2ccc(-c3[nH]c4cc5ncnc5cc4nc3-c3ccccc3)cc2)CC1
| target | remaining signal |
| --- | --- |
| MAP4K5 (Homo sapiens, UniProt Q9Y4K4) | 91.9% |
| OXSR1 (Homo sapiens, UniProt O95747) | 102% |
| GRK2 (Homo sapiens, UniProt P25098) | 95.3% |

Series 2 — read-out: peptide-MHC binding; molecule type: peptide; tested at: concentration not given
Target: HLA class I histocompatibility antigen, A alpha chain, allele A*80:01 (Homo sapiens, UniProt P04439)
| Molecule | binding |
| --- | --- |
| KIFKVTGEF | inactive |
| DWMERIEDF | inactive |
| FTENGPWMY | inactive |
| TMRTPLFPW | inactive |
| HTVGLGQGY | inactive |
| TQIPRQMVL | inactive |
| WTGMVDGWY | inactive |
| ILFDRLPIA | inactive |

Series 3 — target: CCNB2, cyclin fold, Cln2 fusion (human); method: yeast growth competition, sequencing; matrix: yeast; setting: weak parent motif; baseline: not given; direction: higher = stronger binding
Parent: viral docking peptide; KGVKRKLFAEDSS; partner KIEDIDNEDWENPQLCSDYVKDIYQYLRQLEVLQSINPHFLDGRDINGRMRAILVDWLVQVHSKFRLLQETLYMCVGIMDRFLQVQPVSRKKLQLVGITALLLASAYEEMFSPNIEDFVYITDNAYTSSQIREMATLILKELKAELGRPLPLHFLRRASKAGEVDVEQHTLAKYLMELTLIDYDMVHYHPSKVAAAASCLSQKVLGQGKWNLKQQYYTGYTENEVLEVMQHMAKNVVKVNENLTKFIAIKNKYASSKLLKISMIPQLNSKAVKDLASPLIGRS
| Substitution | normalised enrichment score |
| --- | --- |
| S12I | 1.25 |
| K6W | -0.107 |
| S12E | 0.998 |
| V3E | 0.325 |
| S12G | 0.56 |
| E10K | 0.631 |
| K4N | 0.206 |
| V3P | 0.615 |

Other studies, line by line
| SMILES | target | assay | conditions | measurement | value |
| --- | --- | --- | --- | --- | --- |
| C[C@H](NC(=O)Nc1cc2[nH]ncc2c(CO)n1)c1ccccn1 | HTR2A (Homo sapiens, UniProt P28223) | cell-free assay | 10 µM | inhibition | 7.64% |
| O=C(NCc1ncc(C(F)(F)F)cc1Cl)c1ccc2c(c1)C1(CCS(=O)(=O)CC1)[C@H](C1CC1)N2S(=O)(=O)c1ccc(F)cc1 | CRK2 (Plasmodium falciparum, UniProt P61075) | cell-free assay, competition with immobilised ligand | 1 µM | remaining binding | 94% |
| CNC(=O)Nc1ccc2c(c1)[C@]1(CC2)OC(=O)N(CC(=O)N(Cc2ccc(F)cc2)[C@@H](C)C(F)(F)F)C1=O | HTR2C (Homo sapiens, UniProt P28335) | binding, radioligand binding | 10 µM | inhibition | -3.43% |
